# Experimental data collected from several papers.
# Lines come from different studies, so protocols differ. Several values in a cell are separate wells, animals, samples, runs or records. ± gives the spread as reported.
# rep papain-like protease: Replicase polyprotein 1ab, papain-like protease (rep, Middle East respiratory syndrome-related coronavirus, UniProt K9N7C7)
# Replicase polyprotein 1a papain-like protease: Replicase polyprotein 1a, papain-like protease (Severe acute respiratory syndrome coronavirus 2, UniProt P0DTC1)
# bglR: Beta-glucuronidase (bglR, Clostridium perfringens, UniProt Q8XP19)
# OPG122: mRNA-decapping protein OPG122 (OPG122, Vaccinia virus, UniProt P04312)
# SCN9A: Sodium channel protein type 9 subunit alpha (SCN9A, Homo sapiens, UniProt Q15858)
# Lethal factor: Lethal factor (Bacillus anthracis, UniProt P15917)
Structure (SMILES),target,assay,system,conditions,IC50
CCC(C(=O)Nc1ccccc1F)n1c(SCc2ccc(F)cc2)nc2ncccc21 (stereo not drawn),rep papain-like protease,"enzyme activity, inhibitor",,,> 100 µM
Cc1ccc(N2CCC(N(C)C)CC2)cc1C(=O)NC1(c2ccc3c4c(cccc24)CC3)CC1,Replicase polyprotein 1a papain-like protease,"enzyme activity, inhibitor",,,0.115 µM
C[C@H]1CN(c2nnnc3c2sc2nc(N4CCOCC4)c4c(c23)CCCC4)CCN1,bglR,,,,> 100 µM
Nc1ncnc2c1ncn2C1OC(COP(=O)(O)OP(=O)(O)OP(=O)(O)O)C(O)C1F (stereo not drawn),OPG122,,,,> 200 µM
Cc1ccc(NC(=S)NNc2c([N+](=O)[O-])cc(C(F)(F)F)cc2[N+](=O)[O-])cc1Cl,"Transcriptional activator VP30, with NP peptide (VP30, Zaire ebolavirus, UniProt Q05323)",,Ebola virus,,> 20 µM and 29.6 µM
Nc1nc2c(nc(O)n2C2OC(COP(=O)(O)OP(=O)(O)OP(=O)(O)O)C(O)C2O)c(=O)[nH]1 (stereo not drawn),OPG122,inhibitor,,,> 200 µM
CC(C)(OC1OC(CO)C(O)C(O)C1O)C1CCC(C)(C2C(O)CC3(C)C4CC(O)C5C(C)(C)C(OC6OCC(O)C(O)C6OC6OC(CO)C(O)C(O)C6O)CCC56CC46CCC23C)O1 (stereo not drawn),"Spike glycoprotein (Severe acute respiratory syndrome coronavirus 2, UniProt P0DTC2)","spike RBD-ACE2 binding, inhibitor, ELISA",,,15.2 µM
CC(C)C[C@H](NC(=O)[C@H](CC(=O)O)NC(=O)[C@H](Cc1ccc(O)cc1)NC(=O)[C@H](CCCCN)NC(=O)[C@@H]1CSSC[C@@H]2NC(=O)[C@H](CCCCN)NC(=O)[C@H](CC(=O)O)NC(=O)[C@H](CC(N)=O)NC(=O)[C@H](CO)NC(=O)[C@@H]3CCCN3C(=O)[C@H](CC(N)=O)NC(=O)[C@@H]3CSSC[C@H](NC(=O)[C@H](C(C)C)NC(=O)[C@H](CC(C)C)NC(=O)[C@H](CO)NC(=O)[C@H](CO)NC(=O)[C@H](CO)NC(=O)[C@H](CCCCN)NC(=O)[C@H](CSSC[C@H](NC(=O)[C@H](C)N)C(=O)N[C@@H](CC(C)C)C(=O)NCC(=O)N[C@@H](Cc4ccccc4)C(=O)NCC(=O)N[C@@H](CCC(=O)O)C(=O)N[C@@H](CCCCN)C(=O)N3)NC2=O)C(=O)N[C@@H](CO)C(=O)N[C@@H](CCC(N)=O)C(=O)N[C@@H](CCCCN)C(=O)N[C@@H](CCCNC(=N)N)C(=O)N[C@@H](CCCCN)C(=O)N[C@@H](Cc2c[nH]c3ccccc23)C(=O)N1)C(=O)O,SCN9A,"ion current, inhibitor, patch clamp",,,14.9 µM
C[n+]1cn(C2OC(COP(=O)(O)OP(=O)(O)OP(=O)(O)OCC3OC(n4cnc5c(=O)[nH]c(N)nc54)C(O)C3O)C(O)C2O)c2nc(N)[nH]c(=O)c21 (stereo not drawn),OPG122,inhibitor,,,69 µM
CN(C)c1nc2sc3c(N4CCNCC4)nnnc3c2c2c1CCCC2,bglR,,,,0.049 ± 0.002 µM
CC(C)C[C@@H]1NC(=O)[C@H](CCCNC(=N)N)NC(=O)[C@@H]2CCCN2C(=O)[C@@H]2CSSC[C@H](NC(=O)CNC(=O)[C@@H]3CCCN3C(=O)[C@H](CCCCN)NC(=O)[C@H](CC(=O)O)NC(=O)[C@@H](NC(=O)CN)C(C)C)C(=O)N[C@@H](CCCNC(=N)N)C(=O)N[C@@H](Cc3ccc(O)cc3)C(=O)N[C@@H](CC(C)C)C(=O)N[C@@H](Cc3ccccc3)C(=O)NCC(=O)NCC(=O)N[C@H]3CSSC[C@H](NC(=O)CNC1=O)C(=O)N[C@@H](CCCCN)C(=O)NCC(=O)N[C@@H](CCCCN)C(=O)NCC(=O)N[C@@H](Cc1c[nH]cn1)C(=O)N[C@@H](CC(=O)O)C(=O)N[C@@H](Cc1ccc(O)cc1)C(=O)N[C@H](C(=O)N[C@@H](C)C(=O)N[C@@H](Cc1c[nH]c4ccccc14)C(=O)N[C@@H](CC(=O)O)C(=O)NCC(=O)N[C@H](C(=O)N[C@@H](Cc1ccccc1)C(=O)N[C@@H](CO)C(=O)N[C@@H](CC(=O)O)C(=O)O)[C@@H](C)O)CSSC[C@H](NC(=O)[C@H](CC(=O)O)NC(=O)[C@H](CC(=O)O)NC(=O)[C@H](CC(=O)O)NC(=O)[C@H](CO)NC(=O)[C@H](CCCCN)NC3=O)C(=O)N2,"SCN5A (Homo sapiens, UniProt Q14524)","peak sodium current, inhibitor, automated patch clamp",HEK293,"holding potential -90 mV, together with: 0.1 % BSA",2.19 µM
Cc1ccc(N2CC(N3CCC(C)(O)CC3)C2)cc1C(=O)NC1(c2ccc3c4c(cccc24)C(=O)N3C)CC1,Replicase polyprotein 1a papain-like protease,"enzyme activity, inhibitor",,,0.00846 µM
CSc1ncnc2c1ncn2C1OC(COP(=O)(O)OP(=O)(O)OP(=O)(O)O)C(O)C1O (stereo not drawn),OPG122,,,,> 200 µM
CC[C@H](C)[C@@H]1NC(=O)[C@H](CO)NC(=O)[C@H](CCCNC(=N)N)NC(=O)[C@H](CO)NC(=O)[C@H](C(C)C)NC(=O)CNC(=O)[C@H](CCCNC(=N)N)NC(=O)[C@H](CCCNC(=N)N)NC(=O)[C@H](CSCC(N)=O)NC(=O)[C@H](CC(C)C)NC(=O)[C@H](CO)NC(=O)[C@H](CCCNC(=N)N)NC(=O)[C@H](CO)NC(=O)[C@H](Cc2ccccc2)NC(=O)CNC(=O)[C@H](CCCNC(=N)N)NC(=O)[C@H]([C@@H](C)O)NC(=O)[C@H](CO)NC1=O,Lethal factor,"enzyme activity, inhibitor",,,> 10 µM
CC[C@H](C)[C@H](NC(=O)[C@H](CCCCN)NC(=O)[C@H](Cc1ccccc1)NC(=O)[C@H](CC(=O)O)NC(=O)[C@@H](NC(=O)[C@H](CC(N)=O)NC(=O)[C@@H](N)CO)[C@@H](C)CC)C(=O)N[C@@H](CCCCN)C(=O)N[C@@H](CCCCN)C(=O)O,"HLA class I histocompatibility antigen, A alpha chain, allele A*26:01 (Homo sapiens, UniProt P04439)",biochemical,,,> 10 µM
COc1ccc(Cn2cnc3cc(C)c(C)cc32)cc1,"Enoyl-[acyl-carrier-protein] reductase [NADH] (Francisella tularensis subsp. tularensis, UniProt Q5NGQ3)",inhibitor,,,0.5 µM
CSCC[C@H](NC(=O)[C@@H](NC(C)=O)C(C)C)C(=O)N1CCC[C@H]1C(=O)N[C@@H](Cc1c[nH]c2ccccc12)C(=O)N[C@@H](CC(=O)O)C(=O)N[C@@H](CCC(=O)O)C(=O)N[C@@H](Cc1c[nH]c2ccccc12)C(=O)N[C@@H](CC(C)C)C(=O)N[C@H](C(=O)N[C@@H](CCCCN)C(=O)N[C@@H](CCCNC(=N)N)C(=O)N[C@@H](CCCCN)C(=O)N1CCC[C@H]1C(=O)N[C@@H](CCC(=O)O)C(=O)N[C@@H](CC(C)C)C(=O)N1CCC[C@H]1C(N)=O)[C@@H](C)O,"Polyprotein P1234, protease (Chikungunya virus, UniProt Q8JUX6)","enzyme activity, inhibitor, FRET",,,4.6 µM
Cc1cc(O)cc(O)c1C(=O)O[C@@H]1CC2=C(COC(CC(C)O)=C2)C(=O)[C@]1(C)O (stereo partly drawn),"Neuraminidase (NA, Influenza A virus, UniProt Q6DPL2)",,influenza A virus H5N1,,165 ± 3.6 µM
CC(C)C[C@H](NC(=O)[C@H](CC(=O)O)NC(=O)[C@H](Cc1ccc(O)cc1)NC(=O)[C@H](CCCCN)NC(=O)[C@@H]1CSSC[C@@H]2NC(=O)[C@H](CCCCN)NC(=O)[C@H](CC(=O)O)NC(=O)[C@H](CC(N)=O)NC(=O)[C@H](CO)NC(=O)[C@@H]3CCCN3C(=O)[C@H](CC(N)=O)NC(=O)[C@@H]3CSSC[C@H](NC(=O)[C@H](C(C)C)NC(=O)[C@H](CC(C)C)NC(=O)[C@H](CO)NC(=O)[C@H](CO)NC(=O)[C@H](CO)NC(=O)[C@H](CCCCN)NC(=O)[C@H](CSSC[C@H](NC(=O)[C@H](C)N)C(=O)N[C@@H](CC(C)C)C(=O)NCC(=O)N[C@@H](Cc4ccccc4)C(=O)NCC(=O)N[C@@H](CCC(=O)O)C(=O)N[C@@H](CCCCN)C(=O)N3)NC2=O)C(=O)N[C@@H](CO)C(=O)N[C@@H](CCC(N)=O)C(=O)N[C@@H](C)C(=O)N[C@@H](Cc2c[nH]cn2)C(=O)N[C@@H](CCCCN)C(=O)N[C@@H](Cc2c[nH]c3ccccc23)C(=O)N1)C(=O)O,SCN9A,"ion current, inhibitor, patch clamp",,,4.07 µM
CC[C@H](C)[C@@H]1NC(=O)[C@@H]2CSSC[C@H](NC(=O)[C@H](CCCNC(=N)N)NC(=O)[C@@H]3CSSC[C@H](NC1=O)C(=O)N[C@@H]([C@@H](C)O)C(=O)N[C@@H](CCCNC(=N)N)C(=O)NCC(=O)N[C@@H](Cc1ccccc1)C(=O)N3)C(=O)N[C@@H](C)C(=O)N[C@H]1CSSC[C@H](NC(=O)[C@H](C(C)C)NC(=O)CNC(=O)[C@H](Cc3c[nH]cn3)NC(=O)[C@H](CC(C)C)NC1=O)C(=O)N[C@@H](CCCNC(=N)N)C(=O)N2,Lethal factor,"enzyme activity, inhibitor",,,0.971 ± 0.048 µM
c1cn(Cc2ccc(-c3ccc4occc4c3)cc2)cn1,"cyp121 (Mycobacterium tuberculosis, UniProt P9WPP7)","substrate depletion, inhibitor, LC-MS/MS",,together with: cYY 20 µM,19 µM
CCC(C(=O)Nc1ccccc1OC)n1cccc2nc(SCc3ccc(F)cc3)nc1-2 (stereo not drawn),rep papain-like protease,"enzyme activity, inhibitor",,,> 100 µM
CC[C@H](C)[C@@H]1NC(=O)[C@H](CCCNC(=N)N)NC(=O)[C@H](CO)NC(=O)[C@H](CCC(=O)O)NC(=O)[C@H](CC(=O)O)NC(=O)CNC(=O)CNC(=O)[C@H]([C@@H](C)O)NC(=O)[C@H](Cc2ccccc2)NC(=O)[C@H](CO)NC(=O)[C@H]([C@@H](C)O)NC(=O)[C@H](C)NC(=O)[C@@H]2CSSC[C@@H](C(=O)N[C@@H](Cc3ccc(O)cc3)C(=O)N[C@@H](Cc3ccccc3)C(=O)N[C@H](C(=O)N[C@H](C(=O)NCC(=O)O)[C@@H](C)O)[C@@H](C)O)NC(=O)[C@H]([C@@H](C)O)NC(=O)[C@H](CSSC[C@H](NC(=O)[C@H](CCC(=O)O)NC(=O)[C@H](CO)NC(=O)[C@H](CCCCN)NC(=O)[C@H](Cc3ccc(O)cc3)NC(=O)[C@@H]3CCCN3C(=O)[C@H](Cc3ccccc3)NC(=O)[C@H](CCCCN)NC(=O)[C@H](CCCNC(=N)N)NC(=O)[C@H](CCCCN)NC(=O)[C@H](CCCCN)NC(=O)[C@H](Cc3ccc(O)cc3)NC(=O)[C@@H]3CCCN3C(=O)[C@@H](NC(=O)[C@H](CC(=O)O)NC(=O)[C@H](CCCCN)NC(=O)[C@H](CCCCN)NC(=O)[C@@H](NC(=O)[C@@H](NC(=O)[C@@H](N)CCC(=O)O)C(C)C)[C@@H](C)CC)[C@@H](C)O)C(=O)N[C@@H](CC(C)C)C(=O)N[C@@H](CCCCN)C(=O)N[C@@H](C)C(=O)N2)NC(=O)[C@H](CCCCN)NC(=O)[C@H](Cc2ccccc2)NC(=O)[C@H](Cc2ccccc2)NC(=O)CNC(=O)[C@@H]2CCCN2C(=O)[C@H](CCCCN)NC(=O)CNC(=O)[C@H](CCC(=O)O)NC(=O)[C@H](CCC(N)=O)NC1=O,"KCNQ4 (Homo sapiens, UniProt P56696, D288A)","potassium current, whole-cell patch clamp",HEK-293T,,219 ± 7.6 µM
N#CC(CC1CCCNC1=O)NC(=O)C(CC1CC1)NC(=O)c1cc2cc(F)cc(F)c2[nH]1 (stereo not drawn),"Cathepsin S (CTSS, Homo sapiens, UniProt P25774)","enzyme activity, inhibitor",,"pH 5, with preincubation",0.4 µM

# Repeated from above:
Structure (SMILES),target,assay,system,conditions,IC50
Nc1ncnc2c1ncn2C1OC(COP(=O)(O)OP(=O)(O)OP(=O)(O)O)C(O)C1F (stereo not drawn),OPG122,,,,> 200 µM
CC(C)C[C@H](NC(=O)[C@H](CC(=O)O)NC(=O)[C@H](Cc1ccc(O)cc1)NC(=O)[C@H](CCCCN)NC(=O)[C@@H]1CSSC[C@@H]2NC(=O)[C@H](CCCCN)NC(=O)[C@H](CC(=O)O)NC(=O)[C@H](CC(N)=O)NC(=O)[C@H](CO)NC(=O)[C@@H]3CCCN3C(=O)[C@H](CC(N)=O)NC(=O)[C@@H]3CSSC[C@H](NC(=O)[C@H](C(C)C)NC(=O)[C@H](CC(C)C)NC(=O)[C@H](CO)NC(=O)[C@H](CO)NC(=O)[C@H](CO)NC(=O)[C@H](CCCCN)NC(=O)[C@H](CSSC[C@H](NC(=O)[C@H](C)N)C(=O)N[C@@H](CC(C)C)C(=O)NCC(=O)N[C@@H](Cc4ccccc4)C(=O)NCC(=O)N[C@@H](CCC(=O)O)C(=O)N[C@@H](CCCCN)C(=O)N3)NC2=O)C(=O)N[C@@H](CO)C(=O)N[C@@H](CCC(N)=O)C(=O)N[C@@H](C)C(=O)N[C@@H](Cc2c[nH]cn2)C(=O)N[C@@H](CCCCN)C(=O)N[C@@H](Cc2c[nH]c3ccccc23)C(=O)N1)C(=O)O,SCN9A,"ion current, inhibitor, patch clamp",,,4.07 µM
Cc1ccc(N2CCC(N(C)C)CC2)cc1C(=O)NC1(c2ccc3c4c(cccc24)CC3)CC1,Replicase polyprotein 1a papain-like protease,"enzyme activity, inhibitor",,,0.115 µM
